# Results collected from several papers.
# Lines come from different studies, so protocols differ. Numbers after ± are the reported error.
# UniProt P10635, sequence (whole entry, looked up): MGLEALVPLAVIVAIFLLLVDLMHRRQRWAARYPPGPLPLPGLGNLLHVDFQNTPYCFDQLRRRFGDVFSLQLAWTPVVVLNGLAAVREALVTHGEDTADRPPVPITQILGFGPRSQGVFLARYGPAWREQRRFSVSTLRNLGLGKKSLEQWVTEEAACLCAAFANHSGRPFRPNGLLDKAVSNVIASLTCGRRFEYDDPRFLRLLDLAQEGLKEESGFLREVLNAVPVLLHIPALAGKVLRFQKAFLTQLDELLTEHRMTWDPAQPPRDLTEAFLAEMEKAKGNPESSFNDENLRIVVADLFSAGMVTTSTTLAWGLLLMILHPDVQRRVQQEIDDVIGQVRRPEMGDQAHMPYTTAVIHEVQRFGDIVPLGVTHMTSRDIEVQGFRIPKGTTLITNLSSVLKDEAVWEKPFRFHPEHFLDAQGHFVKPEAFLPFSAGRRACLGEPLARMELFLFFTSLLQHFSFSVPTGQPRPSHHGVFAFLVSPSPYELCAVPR
# UniProt P37136, sequence (whole entry, looked up): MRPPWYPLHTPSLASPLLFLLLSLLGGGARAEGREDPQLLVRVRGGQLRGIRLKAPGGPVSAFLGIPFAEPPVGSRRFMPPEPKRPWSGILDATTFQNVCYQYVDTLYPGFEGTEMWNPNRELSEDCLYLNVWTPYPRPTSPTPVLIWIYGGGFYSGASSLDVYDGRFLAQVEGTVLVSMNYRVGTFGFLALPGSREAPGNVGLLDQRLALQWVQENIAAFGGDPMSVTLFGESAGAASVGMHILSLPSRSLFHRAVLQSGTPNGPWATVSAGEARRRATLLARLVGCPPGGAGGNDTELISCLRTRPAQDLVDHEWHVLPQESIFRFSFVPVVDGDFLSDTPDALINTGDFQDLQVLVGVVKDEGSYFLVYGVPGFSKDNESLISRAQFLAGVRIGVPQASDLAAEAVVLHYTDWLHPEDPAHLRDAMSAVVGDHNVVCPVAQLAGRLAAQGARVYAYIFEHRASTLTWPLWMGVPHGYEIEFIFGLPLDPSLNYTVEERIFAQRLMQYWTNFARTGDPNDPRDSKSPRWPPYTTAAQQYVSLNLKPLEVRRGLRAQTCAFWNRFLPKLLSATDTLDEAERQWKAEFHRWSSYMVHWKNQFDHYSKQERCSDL
# UniProt P41143, sequence (whole entry, looked up): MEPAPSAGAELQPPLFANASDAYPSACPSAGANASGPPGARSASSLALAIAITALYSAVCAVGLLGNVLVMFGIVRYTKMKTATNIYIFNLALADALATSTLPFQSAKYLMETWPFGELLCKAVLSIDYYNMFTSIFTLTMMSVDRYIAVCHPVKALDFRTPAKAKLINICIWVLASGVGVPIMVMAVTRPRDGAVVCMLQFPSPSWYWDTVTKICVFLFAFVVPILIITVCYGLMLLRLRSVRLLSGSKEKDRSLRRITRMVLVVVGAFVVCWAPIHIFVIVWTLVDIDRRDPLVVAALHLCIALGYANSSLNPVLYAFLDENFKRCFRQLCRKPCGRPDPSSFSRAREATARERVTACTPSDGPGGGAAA
Substance,target or system,test,system,conditions,quantity,result
maraviroc,,,"black CYP3A5 poor metabolizers, plasma",300 mg twice daily,Cavg,287 ng/mL
phoxim-oxon,"Ache (Rattus norvegicus, UniProt P37136)","enzyme activity, inhibitor, Ellman","rat, postnatal day 12, heart homogenate","15 min, 37 °C",IC50,12 nM
semaglutide,,item: drug dose not changed,"human, safety analysis set","concentration not given, 32 weeks, run-in",participants with adverse events,74%
(+)-catechin gallate,Caco-2 monolayer,transwell permeability,,"1000 ng/µL, 4 h, apical application",mass in basolateral compartment,not detected
chicoric acid,,UPLC,"broiler chicken, plasma","oral gavage, 20 mg/kg",AUC(0-inf),490 ± 164 ng·h/mL
SNC80,"Delta-type opioid receptor, with Gi3 (OPRD1, Homo sapiens, UniProt P41143)","Gi3 activation, agonist",,,EC50,3.31 nM
deucravacitinib,,multiple ascending dose,healthy human,"oral, 12 mg once daily",subjects with headache,33.3%
mitragynine,"Cytochrome P450 2D6 (CYP2D6, Homo sapiens, UniProt P10635)","dextromethorphan O-demethylation, inhibitor",human liver microsomes,,IC50,2200 nM

# Excerpt of the above:
Substance,target or system,test,system,conditions,quantity,result
semaglutide,,item: drug dose not changed,"human, safety analysis set","concentration not given, 32 weeks, run-in",participants with adverse events,74%
